Results from different studies.
A part holds a random share of what one study measured.

Study 1 — cell line: HEK-293T/ACE2; tested at: 10 µM; time: 16 h; baseline: vehicle
| SMILES | viability [%] |
| --- | --- |
| CC(=O)N[C@@H](CS)C(=O)O | 99.6 |
| Cc1noc(NS(=O)(=O)c2ccc(N)cc2)c1C | 99.5 |
| CC(C)[C@H]1CC[C@H](C(=O)N[C@H](Cc2ccccc2)C(=O)O)CC1 | 96.9 |
| O=C(OOC(=O)c1ccccc1)c1ccccc1 | 100 |

Study 2 — technique: protein-binding microarray; form: double-stranded DNA, one strand shown; sample: in vitro; tested at: 250 nM; notes: 60-bp whole probe; together with: salmon DNA 0.4 mg/ml; baseline: random background probes; reading: higher = stronger binding; constant ends, left off below: GCCTAGCAC … GTCTTGATTCGCTTGACGCTGCTG
Target: Interferon regulatory factor 5, full length, phosphomimetic (IRF5, Homo sapiens, UniProt Q13568-2, residues 1-514, K96S/S451D/S453D/S456D/S462D)
| Strand | log fluorescence [z-score] |
| --- | --- |
| TCACGAGTCCCTATCTCACTGTGCTAG | -0.4 |
| TTAGATTTAAGACTGGATTAGTGCTAG | -0.0694 |
| AAACCTATAGGGCCTGACTTCGTGCTA | -0.33 |
| TTAGGTTTCGGACTAGGTTAGTGCTAG | 6.03 |
| TAAGATTTCAGTTTCGATTAGTGCTAG | 10 |
| TTAGATTTCAGTTTCGATTCGTGCTAG | 10.1 |
| TCAGATATCGGGTATCGATTAGTGCTA | 5.54 |
| TTAGGTTTCGACACTTGGTTAGTGCTA | 5.21 |

Study 3 — observed: enzyme activity; mode: inhibitor; tested at: 20 µM
Target: Replicase polyprotein 1ab, polymerase (rep, Severe acute respiratory syndrome coronavirus 2, UniProt P0DTD1)
| Compound | inhibition [%] |
| --- | --- |
| CS(=O)(=O)n1cc2c(n1)CN([C@H]1CO[C@H](c3cc(F)ccc3F)[C@@H](N)C1)C2 | -3.31 |
| COc1cccc(/C=N/N=C/c2cccc(OC)c2)c1 | -4.79 |
| Cn1nc(C(C)(C)C)cc1C(=O)N[C@@H](Cc1cccc(Cl)c1)C(=O)NCC#N | -1.74 |
| Cc1cccc(OCC(O)CNC(C)(C)C)c1C (centres unmarked) | -0.42 |
| CC[C@H](C)n1cc(C)c2c(C(=O)NCc3c(C)cc(C)[nH]c3=O)cc(-c3ccc(N4CCNCC4)nc3)cc21 | 5.98 |
| CC1(C)OC(=O)NC1=O | 12.6 |
| Cc1c(S(=O)(=O)O)oc2c1C(=O)C(=O)c1c-2ccc2c1CCCC2(C)C | 8.79 |
| CC1(C)S[C@@H]2[C@H](NC(=O)C(C(=O)O)c3ccccc3)C(=O)N2[C@H]1C(=O)O (some centres unmarked) | 1.02 |
| O=c1[nH]cc(F)c(=O)[nH]1 | 27.6 |
| [2H]C([2H])([2H])C(=O)Nc1c(I)c(C(=O)O)c(I)c(C(=O)NC)c1I | 2.82 |
| Cc1csc2c(N[C@@H](C)CN3CCN(S(=O)(=O)c4ccc(Cl)c(Cl)c4)CC3)ncnc12 | -2.46 |
| CCC(=O)O[C@@H](O[P@](=O)(CCCCc1ccccc1)CC(=O)N1C[C@H](C2CCCCC2)C[C@H]1C(=O)O)C(C)C | 9.35 |
| CC(C)(O)c1ccn2c(-c3ccc(F)c(-c4ccc(F)cc4C#N)c3)cnc2c1F | -1.7 |
| O=C(Nc1ccc(Cl)cc1)Nc1cccc(-c2cccc(N3CCCC3)n2)c1 | 2.66 |
| CC(=O)Oc1ccccc1C(=O)Nc1ccccc1 | -3.57 |
| COc1ccc([C@@H]2CC(=O)c3c(O)cc(O[C@@H]4O[C@H](CO[C@@H]5O[C@@H](C)[C@H](O)[C@@H](O)[C@H]5O)[C@@H](O)[C@H](O)[C@H]4O)cc3O2)cc1O | -0.7 |
| COC(=O)[C@H](Cc1ccccc1)NC(=O)[C@@H](N)CC(=O)O | -1.4 |
| COC(=O)Nc1ccc(-c2nc(N3CCOCC3)c3cnn(C4CCN(Cc5cccnc5)CC4)c3n2)cc1 | 3.72 |
| O=c1cc(N2CCOCC2)oc2c1ccc1ccccc12 | -2.85 |
| COc1cc(C(C)=O)ccc1O | -11.5 |
| C[C@@]1(C(=O)N[C@@H](CCC(=O)O)C(=O)O)CCCN1C(=O)CN | -4.74 |
| CC(C)OC(=O)OCOP(=O)(CO[C@H](C)Cn1cnc2c(N)ncnc21)OCOC(=O)OC(C)C | -4.27 |
| O=C(C[S+]([O-])C(c1ccccc1)c1ccccc1)NO (centres unmarked) | 3.84 |
| COc1ccc(CN2CCN(C(c3ccc(F)cc3)c3ccc(F)cc3)CC2)c(OC)c1OC | -1.49 |
| CCN(CC)CCOC(=O)c1ccc(N)cc1 | 27.6 |

Study 4 — observed: enzyme activity; mode: inhibitor; tested at: 10 µM
Target: Replicase polyprotein 1ab, 3C-like proteinase (rep, Middle East respiratory syndrome-related coronavirus, UniProt K9N7C7)
| SMILES | inhibition [%] |
| --- | --- |
| Cc1ccc(S(=O)(=O)/C=C/C#N)cc1 | 17 |
| C[C@@H](CN1CC(=O)NC(=O)C1)N1CC(=O)NC(=O)C1 | 14 |
| CCCCCCCCCCCCCCCCCC[S+](CCC)c1ccccc1C(=O)OCC (centres unmarked) | 21 |
| CN1CC[C@@]2(C)c3cc(O)ccc3N(C)[C@@H]12 | 41 |
| CC(=O)O/N=C1/C(=O)N(Cc2cc(Cl)ccc2Cl)c2ccc(Cl)cc21 | 46 |
| O=C(/C=C/c1ccc(O)c(O)c1)O[C@H](Cc1ccc(O)c(O)c1)C(=O)O | 19 |

Study 5 — technique: protein binding microarray; form: double-stranded DNA, one strand shown; sample: in vitro; tested at: not given; baseline: not given; reading: higher = stronger binding
Target: Histone acetyltransferase KAT6A, winged helix 1, GST fusion (KAT6A, Homo sapiens, UniProt Q92794, residues 1-85)
Notes: 8-mer, flanks averaged, mean of 2 arrays, mostly near background
Construct (chain): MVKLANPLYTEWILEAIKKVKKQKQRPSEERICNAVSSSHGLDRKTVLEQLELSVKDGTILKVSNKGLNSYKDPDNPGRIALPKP
| Strand | E-score |
| --- | --- |
| CGAGAGAA | -0.123 |
| ACTACGAA | -0.259 |
| CATCACTA | -0.278 |
| ACGACATG | -0.275 |
| TGAACACA | -0.102 |
| CGTGCTTC | -0.0122 |
| TACTATCA | 0.0145 |
| CGTTACGC | 0.355 |

Study 6 — technique: universal PBM; form: double-stranded DNA, one strand shown; sample: in vitro; tested at: 600 nM; reading: higher = stronger binding
Target: Sal-like protein 4, full length isoform A (SALL4, Homo sapiens, UniProt Q9UJQ4, residues 1-1053)
Sequence of UniProt Q9UJQ4 (whole entry, looked up): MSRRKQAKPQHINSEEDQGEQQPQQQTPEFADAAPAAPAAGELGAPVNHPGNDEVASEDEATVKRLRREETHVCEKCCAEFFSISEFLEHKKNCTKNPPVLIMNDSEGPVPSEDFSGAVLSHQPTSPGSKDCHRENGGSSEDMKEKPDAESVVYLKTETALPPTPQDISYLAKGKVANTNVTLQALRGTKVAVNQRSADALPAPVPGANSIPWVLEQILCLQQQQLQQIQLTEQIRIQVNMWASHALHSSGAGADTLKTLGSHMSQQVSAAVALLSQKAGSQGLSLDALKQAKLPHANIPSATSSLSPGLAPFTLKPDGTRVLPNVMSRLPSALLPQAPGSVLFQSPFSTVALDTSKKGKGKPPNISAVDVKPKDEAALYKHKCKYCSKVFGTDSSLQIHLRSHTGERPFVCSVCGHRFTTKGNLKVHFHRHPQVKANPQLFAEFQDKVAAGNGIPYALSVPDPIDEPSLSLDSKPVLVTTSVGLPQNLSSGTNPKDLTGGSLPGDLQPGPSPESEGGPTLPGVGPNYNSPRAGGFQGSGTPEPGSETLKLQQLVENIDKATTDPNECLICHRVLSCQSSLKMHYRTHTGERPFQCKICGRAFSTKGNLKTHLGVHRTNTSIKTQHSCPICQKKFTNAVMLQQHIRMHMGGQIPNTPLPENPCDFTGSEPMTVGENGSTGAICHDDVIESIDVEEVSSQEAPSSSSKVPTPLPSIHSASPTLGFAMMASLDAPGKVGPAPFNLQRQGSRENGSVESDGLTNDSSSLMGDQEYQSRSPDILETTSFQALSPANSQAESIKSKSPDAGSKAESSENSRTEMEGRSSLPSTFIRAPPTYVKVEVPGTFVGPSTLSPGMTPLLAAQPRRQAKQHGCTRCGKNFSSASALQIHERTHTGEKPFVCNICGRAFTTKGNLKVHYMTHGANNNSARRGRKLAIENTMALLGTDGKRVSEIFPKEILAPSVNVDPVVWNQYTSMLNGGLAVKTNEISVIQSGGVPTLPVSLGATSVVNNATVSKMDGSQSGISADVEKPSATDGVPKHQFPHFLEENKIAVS
Notes: 8-mer, flanks averaged, mean of replicates
| Strand | E-score |
| --- | --- |
| AATGTGGT | 0.175 |
| CTTCGGAC | -0.0715 |
| CGTAGACG | -0.202 |
| CGAAGGCC | -0.313 |
| AAGGGTTA | 0.0707 |

For quick reference, copied from above (study 5):
| Strand | E-score |
| --- | --- |
| ACTACGAA | -0.259 |
| CATCACTA | -0.278 |
| ACGACATG | -0.275 |
| TGAACACA | -0.102 |
| CGTGCTTC | -0.0122 |
| TACTATCA | 0.0145 |
| CGTTACGC | 0.355 |
